Published values gathered from unrelated publications.
Each line is one published result; not all experiments were run side by side. ± marks the error that the study gave.
Seed linoleate 13S-lipoxygenase-1: Seed linoleate 13S-lipoxygenase-1 (Glycine max, UniProt P08170)
UniProt P08170, sequence (whole entry, looked up): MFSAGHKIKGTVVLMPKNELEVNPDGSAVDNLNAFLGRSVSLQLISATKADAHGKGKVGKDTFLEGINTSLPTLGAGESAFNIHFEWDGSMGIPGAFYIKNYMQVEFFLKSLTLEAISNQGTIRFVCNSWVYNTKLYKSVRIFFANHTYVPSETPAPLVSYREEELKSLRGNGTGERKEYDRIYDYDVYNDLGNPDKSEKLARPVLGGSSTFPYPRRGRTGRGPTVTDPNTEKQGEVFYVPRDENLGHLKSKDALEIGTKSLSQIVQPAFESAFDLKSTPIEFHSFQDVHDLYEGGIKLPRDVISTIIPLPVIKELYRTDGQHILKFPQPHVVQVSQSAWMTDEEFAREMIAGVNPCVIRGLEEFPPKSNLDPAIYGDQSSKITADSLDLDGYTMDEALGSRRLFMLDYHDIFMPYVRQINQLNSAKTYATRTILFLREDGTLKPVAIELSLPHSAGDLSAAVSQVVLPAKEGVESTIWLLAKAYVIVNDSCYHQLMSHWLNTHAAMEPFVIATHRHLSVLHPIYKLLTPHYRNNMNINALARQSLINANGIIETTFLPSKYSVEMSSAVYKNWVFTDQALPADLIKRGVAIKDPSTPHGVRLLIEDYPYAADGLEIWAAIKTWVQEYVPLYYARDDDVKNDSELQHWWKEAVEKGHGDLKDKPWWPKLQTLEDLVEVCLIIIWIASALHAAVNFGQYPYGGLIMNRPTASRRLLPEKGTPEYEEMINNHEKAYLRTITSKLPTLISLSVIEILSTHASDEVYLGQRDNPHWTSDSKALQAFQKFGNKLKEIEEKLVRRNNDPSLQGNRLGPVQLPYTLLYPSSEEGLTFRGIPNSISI
MAPK14: Mitogen-activated protein kinase 14 (MAPK14, Homo sapiens, UniProt Q16539)
UniProt Q16539, sequence (whole entry, looked up): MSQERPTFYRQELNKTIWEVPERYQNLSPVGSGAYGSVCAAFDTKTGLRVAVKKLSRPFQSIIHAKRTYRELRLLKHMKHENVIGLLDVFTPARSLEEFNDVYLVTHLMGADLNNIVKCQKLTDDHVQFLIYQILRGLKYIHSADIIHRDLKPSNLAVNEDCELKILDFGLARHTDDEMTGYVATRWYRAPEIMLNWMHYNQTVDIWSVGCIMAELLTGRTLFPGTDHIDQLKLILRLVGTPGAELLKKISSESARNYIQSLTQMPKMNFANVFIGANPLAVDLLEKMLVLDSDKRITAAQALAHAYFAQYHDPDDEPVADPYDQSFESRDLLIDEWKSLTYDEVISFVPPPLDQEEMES
TDP1: Tyrosyl-DNA phosphodiesterase 1 (TDP1, Homo sapiens, UniProt Q9NUW8)
UniProt Q9NUW8, sequence (whole entry, looked up): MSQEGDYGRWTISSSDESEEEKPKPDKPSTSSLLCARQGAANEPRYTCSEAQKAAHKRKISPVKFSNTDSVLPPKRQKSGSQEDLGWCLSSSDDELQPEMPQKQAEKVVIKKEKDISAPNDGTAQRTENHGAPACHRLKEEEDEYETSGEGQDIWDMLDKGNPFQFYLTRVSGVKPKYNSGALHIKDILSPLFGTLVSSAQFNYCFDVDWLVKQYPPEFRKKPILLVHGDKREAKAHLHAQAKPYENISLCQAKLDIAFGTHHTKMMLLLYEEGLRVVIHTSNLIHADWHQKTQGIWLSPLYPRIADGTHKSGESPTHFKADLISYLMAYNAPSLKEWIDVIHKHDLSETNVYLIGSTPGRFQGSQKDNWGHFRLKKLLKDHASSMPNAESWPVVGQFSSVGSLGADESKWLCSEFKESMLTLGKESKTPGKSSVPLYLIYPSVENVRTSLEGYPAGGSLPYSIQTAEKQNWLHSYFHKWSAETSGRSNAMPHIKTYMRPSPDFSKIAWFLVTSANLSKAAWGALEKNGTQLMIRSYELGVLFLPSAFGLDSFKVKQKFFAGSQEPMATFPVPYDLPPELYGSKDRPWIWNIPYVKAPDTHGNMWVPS
JAK2: Tyrosine-protein kinase JAK2 (JAK2, Homo sapiens, UniProt O60674)
UniProt O60674, sequence (whole entry, looked up): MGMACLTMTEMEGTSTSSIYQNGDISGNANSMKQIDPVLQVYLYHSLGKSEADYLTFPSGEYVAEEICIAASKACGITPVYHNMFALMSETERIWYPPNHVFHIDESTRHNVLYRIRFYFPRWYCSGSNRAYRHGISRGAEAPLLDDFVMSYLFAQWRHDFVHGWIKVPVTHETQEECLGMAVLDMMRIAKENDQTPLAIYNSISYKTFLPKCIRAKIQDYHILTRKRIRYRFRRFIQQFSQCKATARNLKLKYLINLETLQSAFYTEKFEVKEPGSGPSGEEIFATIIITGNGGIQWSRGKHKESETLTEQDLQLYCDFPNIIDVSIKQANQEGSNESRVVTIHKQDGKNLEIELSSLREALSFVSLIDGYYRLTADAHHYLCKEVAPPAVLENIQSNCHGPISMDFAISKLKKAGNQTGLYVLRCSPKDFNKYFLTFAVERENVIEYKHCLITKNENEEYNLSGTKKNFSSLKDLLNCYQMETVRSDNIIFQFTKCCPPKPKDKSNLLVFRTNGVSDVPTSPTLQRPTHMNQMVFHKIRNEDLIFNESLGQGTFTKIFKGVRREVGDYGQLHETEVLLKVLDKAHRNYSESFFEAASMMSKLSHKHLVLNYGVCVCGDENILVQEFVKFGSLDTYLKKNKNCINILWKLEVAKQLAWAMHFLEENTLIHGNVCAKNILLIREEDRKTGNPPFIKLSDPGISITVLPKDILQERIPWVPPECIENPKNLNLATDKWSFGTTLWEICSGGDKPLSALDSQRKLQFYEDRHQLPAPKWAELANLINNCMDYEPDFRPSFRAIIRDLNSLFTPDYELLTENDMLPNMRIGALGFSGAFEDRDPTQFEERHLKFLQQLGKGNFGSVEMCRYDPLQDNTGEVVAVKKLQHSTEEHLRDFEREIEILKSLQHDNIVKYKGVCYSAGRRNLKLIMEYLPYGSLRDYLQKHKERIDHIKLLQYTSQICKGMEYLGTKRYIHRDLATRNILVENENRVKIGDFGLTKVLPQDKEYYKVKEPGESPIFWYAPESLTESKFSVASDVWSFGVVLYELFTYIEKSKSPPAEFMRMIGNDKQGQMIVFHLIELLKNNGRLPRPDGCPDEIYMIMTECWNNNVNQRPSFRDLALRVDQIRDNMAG
DPP4: Dipeptidyl peptidase 4 (DPP4, Sus scrofa, UniProt P22411)
UniProt P22411, sequence (whole entry, looked up): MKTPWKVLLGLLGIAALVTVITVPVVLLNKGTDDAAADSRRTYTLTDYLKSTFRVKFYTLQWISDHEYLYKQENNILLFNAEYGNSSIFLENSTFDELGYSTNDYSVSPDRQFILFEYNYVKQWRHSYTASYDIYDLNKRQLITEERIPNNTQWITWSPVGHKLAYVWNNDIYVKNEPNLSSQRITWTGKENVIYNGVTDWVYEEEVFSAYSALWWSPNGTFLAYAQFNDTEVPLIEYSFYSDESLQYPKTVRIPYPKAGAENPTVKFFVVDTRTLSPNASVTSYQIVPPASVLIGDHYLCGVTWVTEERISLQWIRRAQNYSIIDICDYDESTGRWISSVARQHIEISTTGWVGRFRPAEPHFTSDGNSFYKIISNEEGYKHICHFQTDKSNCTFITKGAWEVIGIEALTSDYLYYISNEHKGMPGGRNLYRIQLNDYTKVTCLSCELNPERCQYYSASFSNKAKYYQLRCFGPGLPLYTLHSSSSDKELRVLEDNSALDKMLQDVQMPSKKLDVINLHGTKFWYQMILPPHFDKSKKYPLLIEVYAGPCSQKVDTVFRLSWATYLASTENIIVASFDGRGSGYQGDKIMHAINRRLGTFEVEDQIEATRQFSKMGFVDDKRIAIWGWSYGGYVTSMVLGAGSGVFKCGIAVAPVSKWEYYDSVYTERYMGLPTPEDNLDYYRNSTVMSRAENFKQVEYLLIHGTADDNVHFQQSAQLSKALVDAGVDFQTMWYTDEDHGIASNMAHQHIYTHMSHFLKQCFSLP
gag-pol reverse transcriptase: Gag-Pol polyprotein, reverse transcriptase (gag-pol, Human immunodeficiency virus 1, UniProt P03366)
UniProt P68400, sequence (whole entry, looked up): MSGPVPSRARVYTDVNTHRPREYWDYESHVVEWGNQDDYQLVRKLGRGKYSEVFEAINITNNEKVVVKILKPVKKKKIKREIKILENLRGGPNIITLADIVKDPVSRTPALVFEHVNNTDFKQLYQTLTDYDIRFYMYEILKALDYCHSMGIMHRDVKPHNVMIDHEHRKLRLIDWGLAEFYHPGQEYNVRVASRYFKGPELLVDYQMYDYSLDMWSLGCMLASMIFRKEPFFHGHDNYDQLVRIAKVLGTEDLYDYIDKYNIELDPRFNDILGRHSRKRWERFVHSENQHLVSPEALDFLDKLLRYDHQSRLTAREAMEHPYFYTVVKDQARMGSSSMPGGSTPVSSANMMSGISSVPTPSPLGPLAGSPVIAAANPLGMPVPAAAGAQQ
UniProt O89049, sequence (whole entry, looked up): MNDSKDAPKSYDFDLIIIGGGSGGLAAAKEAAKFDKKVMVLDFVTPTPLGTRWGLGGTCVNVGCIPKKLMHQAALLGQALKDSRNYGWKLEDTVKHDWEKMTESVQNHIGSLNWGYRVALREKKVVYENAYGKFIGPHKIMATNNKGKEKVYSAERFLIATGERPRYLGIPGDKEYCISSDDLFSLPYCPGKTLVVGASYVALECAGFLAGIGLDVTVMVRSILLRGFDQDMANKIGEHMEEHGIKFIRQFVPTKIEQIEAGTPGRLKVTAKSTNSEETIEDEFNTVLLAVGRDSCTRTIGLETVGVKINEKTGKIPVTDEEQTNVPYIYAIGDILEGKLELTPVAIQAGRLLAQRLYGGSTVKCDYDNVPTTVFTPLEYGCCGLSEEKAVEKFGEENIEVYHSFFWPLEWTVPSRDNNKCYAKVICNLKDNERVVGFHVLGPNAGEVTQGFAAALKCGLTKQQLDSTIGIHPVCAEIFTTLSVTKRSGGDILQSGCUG
UniProt Q920B6, sequence (whole entry, looked up): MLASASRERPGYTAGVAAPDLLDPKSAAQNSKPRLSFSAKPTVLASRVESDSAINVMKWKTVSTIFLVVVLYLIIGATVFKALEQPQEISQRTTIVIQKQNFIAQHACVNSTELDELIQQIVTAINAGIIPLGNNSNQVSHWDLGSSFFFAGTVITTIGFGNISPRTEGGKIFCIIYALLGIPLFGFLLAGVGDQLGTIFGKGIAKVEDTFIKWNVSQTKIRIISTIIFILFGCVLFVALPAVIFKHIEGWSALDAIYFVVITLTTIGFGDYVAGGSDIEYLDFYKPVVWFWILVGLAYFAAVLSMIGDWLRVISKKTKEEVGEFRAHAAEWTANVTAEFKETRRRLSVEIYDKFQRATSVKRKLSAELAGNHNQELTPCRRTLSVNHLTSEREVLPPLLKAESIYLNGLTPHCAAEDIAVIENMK

`O=C1c2ccccc2C(=O)c2c1ccc1c2C(C(=O)Nc2ccccc2Cl)C(=O)C1c1ccccc1` (stereo not shown) gave an inhibition of 55.21 ± 0.26% (mushroom tyrosinase; enzyme activity, inhibitor, spectrophotometry; 50 µg/mL, with: L-DOPA substrate).
With `OC[C@H]1[C@@H](O)[C@@H](O)CN1Cc1ccncc1` the inhibition was 9% (Alpha-mannosidase (Canavalia ensiformis, UniProt C0HJB3); enzyme activity, inhibitor, absorbance; 2 mM).
`Cc1c2c(cc3oc(=O)cc(-c4ccccc4)c13)C(=O)c1cccc(O)c1C2=O` gave an inhibition of 52.84 ± 0.32% (mushroom tyrosinase; enzyme activity; 25 µg/mL, with: L-DOPA).
For `Oc1ccc(CCC(O)CC(O)CCc2ccc(O)cc2)cc1` (stereo not shown), the inhibition was 25.6% (Dopamine beta-hydroxylase (Bos taurus, UniProt P15101); enzyme activity, inhibitor; 100 µg/mL).
For `CCn1c(SC(C)C(=O)Nc2ccc(C)c(C)c2)nnc1C1CCN(C(=O)Nc2ccccc2)CC1` (stereo not shown), the inhibition was 88.5% (Seed linoleate 13S-lipoxygenase-1; enzyme activity, inhibitor; 250 µM).
With `O=C1CCCc2c1c1c(n2Cc2ccccc2)-c2ccccc2C1=O` the inhibition was 59% (Casein kinase II subunit alpha, with CK2 beta subunit (CSNK2A1, Homo sapiens, UniProt P68400); 10 µM).
With `O=C1c2ccccc2C(=O)c2c1ccc1c2C(C(=O)Nc2ccccc2)C(=O)C1c1ccccc1` (stereo not shown) the inhibition was 16.2 ± 0.23% (mushroom tyrosinase; enzyme activity, inhibitor, spectrophotometry; 50 µg/mL, with: L-DOPA substrate).
For `Cc1ccccc1CN1CCN(C(=O)c2cccnc2)CC1`, the inhibition was 67% (MAPK14; primary fragment screen; 1 mM, with: ATP 10 µM).
`Cc1cncc(Oc2ccc(C=NOCc3ccc4nc(-c5ccccc5)c(Nc5ccc(C(=O)O)cc5)n4c3)cc2)n1` has an inhibition of 111% (TDP1; enzyme activity, inhibitor; 100 µM).
With `COc1cc(/C=C/C(=O)CC(C)=O)ccc1O` the inhibition was 15 to 25% (Txnrd1 (Rattus norvegicus, UniProt O89049); enzyme activity, inhibitor, absorbance; 50 µM, 30 min, pH 7.4).
`Cc1ccc(NC(=O)C2C(=O)C(c3ccccc3)c3ccc4c(c32)C(=O)c2ccccc2C4=O)cc1` (stereo not shown) gave an inhibition of 62.12 ± 0.12% (mushroom tyrosinase; enzyme activity, inhibitor, spectrophotometry; 25 µg/mL, with: L-DOPA substrate).
`O=c1cc(-c2ccc(O)c(O)c2)oc2cc(O[C@@H]3O[C@H](CO)[C@@H](O)[C@H](O)[C@H]3O)cc(O)c12` has an inhibition of 18.5 ± 5.93% (Anoctamin-1 (ANO1, Homo sapiens, UniProt Q5XXA6); chloride current, inhibitor, whole-cell patch clamp; HEK293T expressing ANO1; 100 µM).
The inhibition of `CCc1ccc(NC(=O)C(C)Sc2nnc(C3CCN(C(=O)Nc4ccccc4)CC3)n2CC)cc1` (stereo not shown) is reported as 86.6% (Seed linoleate 13S-lipoxygenase-1; enzyme activity, inhibitor; 250 µM).
`COc1c2c(cc3oc(=O)cc(-c4ccccc4)c13)C(=O)c1cc(C)cc(O)c1C2=O` gave an inhibition of 19.3 ± 0.26% (mushroom tyrosinase; enzyme activity; 50 µg/mL, with: L-DOPA).
For `COc1cc(/C=C/C(=O)c2ccc3ccccc3c2)ccc1OCc1ccccc1`, inhibition read “no inhibition” (ABCC1 (Homo sapiens, UniProt P33527); calcein efflux, flow cytometry; 10 µM).
`NCC(=O)NCC(=O)NCC(=O)NCC(=O)NCC(=O)NCC(=O)NCCCC[C@H](NC(=O)[C@@H]1CCCN1C(=O)[C@@H]1CSSCCC(=O)N[C@@H](Cc2ccc(O)cc2)C(=O)N[C@@H](Cc2ccccc2)C(=O)N[C@@H](CCCC(N)=O)C(=O)N[C@@H](CC(N)=O)C(=O)N1)C(=O)NCC(N)=O` has an inhibition of > 50% (AVPR1A (Homo sapiens, UniProt P37288); ligand displacement, radioligand; 10 µM).
For `Cc1c2c(cc3oc(=O)cc(-c4ccc(O)cc4)c13)C(=O)c1cccc(O)c1C2=O`, the inhibition was 9.64 ± 0.64% (mushroom tyrosinase; enzyme activity; 25 µg/mL, with: L-DOPA).
For `CCn1c(C)c(C(=O)c2ccccc2)c(=O)n1-c1cccc(S(N)(=O)=O)c1`, the inhibition was 79.3% (JAK2; enzyme activity, inhibitor, ADP detection; 1 µM).
The inhibition of `O=C1C[C@H](c2ccc(O)c(O)c2)c2c(cc(O)c3c2O[C@H](c2ccc(O)c(O)c2)[C@H](O)C3)O1` is reported as 41.3% (DPP4; enzyme activity, inhibitor, absorbance; 50 µg/mL).
For `COc1cc(Oc2c(O)c(Cl)c(C)c(Cl)c2OC)c(C(=O)O)c(C)c1O`, the inhibition was 9.7 ± 0.8% (gag-pol reverse transcriptase; enzyme activity, inhibitor, PicoGreen fluorescence; 10 µM).
With `CC[C@H](C)[C@H](NC(=O)[C@@H]1CSSC[C@H](NC(=O)[C@H](Cc2ccc(O)cc2)NC(=O)CN)C(=O)N[C@@H](CO)C(=O)N[C@@H](CCCNC(=N)N)C(=O)N[C@@H](CO)C(=O)N[C@@H](Cc2ccc(O)cc2)C(=O)N2CCC[C@H]2C(=O)N2CCC[C@H]2C(=O)N[C@@H](C(C)C)C(=O)N1)C(=O)N1CCC[C@H]1C(=O)N[C@@H](CC(=O)O)C(=O)O` the inhibition was 31% (Mannan-binding lectin serine protease 1 (Homo sapiens, UniProt P48740); enzyme activity, inhibitor; 15 µM, with: 10 nM MASP-1).
`Cc1cc(O)cc2c1C(=O)c1c(cc3oc(=O)cc(-c4ccc(Cl)cc4)c3c1O)C2=O` gave an inhibition of 47.56 ± 0.22% (mushroom tyrosinase; enzyme activity; 50 µg/mL, with: L-DOPA).
With `Cc1ccc2c(c1)C(O)(CC(=O)c1ccc3c(c1)OCO3)C(=O)N2` (stereo not shown) the inhibition was 27% (Uncharacterized protein (Trypanosoma brucei brucei, UniProt Q386Q8); enzyme activity, inhibitor, coupled colorimetric; Trypanosoma brucei; 100 µM).
`CN(C)c1nccc(CN(C)S(=O)(=O)Cc2cccc3cccnc23)n1` gave an inhibition of > 50% (CXCR4 (Homo sapiens, UniProt P61073); β-arrestin recruitment; 10 µM).
For `COc1c2c(cc3oc(=O)cc(-c4ccc(O)cc4)c13)C(=O)c1cc(C)cc(O)c1C2=O`, the inhibition was 33.73 ± 0.33% (mushroom tyrosinase; enzyme activity; 25 µg/mL, with: L-DOPA).
`O=C(Nc1cccc(Cl)c1)c1c[nH]cn1` gave an inhibition of 57.6% (MAPK14; primary fragment screen; 1 mM, with: ATP 10 µM).
The inhibition of `COc1c2c(cc3oc(=O)cc(-c4ccc(Cl)cc4)c13)C(=O)c1cc(C)cc(O)c1C2=O` is reported as 69.6 ± 0.74% (mushroom tyrosinase; enzyme activity; 25 µg/mL, with: L-DOPA).
`O=C1c2ccccc2C(=O)c2c1ccc1c2C(C(=O)NCc2ccccc2)C(=O)C1c1ccccc1` (stereo not shown) gave an inhibition of 33.2 ± 1% (mushroom tyrosinase; enzyme activity, inhibitor, spectrophotometry; 25 µg/mL, with: L-DOPA substrate).
`COc1cc(C(=O)NC2CCC(N3CCN(CC4CCC5(CCCC5)C4)CC3)CC2)c(F)cc1Nc1ncc2c(n1)N(C1CCCC1(F)F)CC(F)(F)C(=O)N2C` (stereo not shown) has an inhibition of 0.96% (EPHA1 (Homo sapiens, UniProt P21709); cell-free assay, TR-FRET; 10 µM).
The inhibition of `Oc1cc(-c2ccccc2Cl)[nH]n1` is reported as 19.4% (MAPK14; primary fragment screen; 1 mM, with: ATP 10 µM).
The inhibition of `C=CC(=O)Nc1cccc(-c2cnc3[nH]cc(C(=O)NC(C)(C)C)c3n2)c1` is reported as > 90% (JAK2; enzyme activity, inhibitor; 0.1 µM).
`COc1c2c(cc3oc(=O)cc(C)c13)C(=O)c1cc(C)cc(O)c1C2=O` gave an inhibition of 41 ± 0.62% (mushroom tyrosinase; enzyme activity; 25 µg/mL, with: L-DOPA).
With `O=C1c2ccccc2C(=O)c2c1ccc1c2C(C(=O)Nc2ccc(Cl)cc2)C(=O)C1c1ccccc1` (stereo not shown) the inhibition was 20.2 ± 0.11% (mushroom tyrosinase; enzyme activity, inhibitor, spectrophotometry; 25 µg/mL, with: L-DOPA substrate).
The inhibition of `CCCCCC[N+](CCCCCC)(CCCCCC)CCCCCC` is reported as ~50% (Kcnk2 (Rattus norvegicus, UniProt Q920B6); ion current, inhibitor; 1 µM, oocytes).
With `COc1cc(OC)c(C(=O)CCc2ccccc2)c(O)c1O` the inhibition was 23.7% (DPP4; enzyme activity, inhibitor, absorbance; 50 µg/mL).
For `CC(C)[C@@H]1NC(=O)[C@@H](NC(=O)[C@H](Cc2ccc(O)cc2)NC(=O)[C@@H]2CCCN2C(=O)[C@H](C)N)CSSC[C@@H](C(=O)O)NC(=O)[C@H](CO)NC(=O)[C@H](Cc2c[nH]c3ccccc23)NC(=O)[C@H](CO)NC(=O)CNC(=O)[C@H](CCCNC(=N)N)NC(=O)[C@H](Cc2ccc(O)cc2)NC1=O`, the inhibition was ~80% (EPHA4 (Homo sapiens, UniProt P54764); protein-protein interaction, inhibitor, ELISA; 10 µM).
With `COc1cccc(OC)c1C(=O)N1CCN(Cc2ccccn2)CC1` the inhibition was 71.9% (MAPK14; primary fragment screen; 0.25 mM, with: ATP 10 µM).
`CC(=O)Nc1cc(COc2c(Cl)cc(CC(N)C(=O)O)cc2Cl)c2oc(-c3ccccc3)nc2c1` (stereo not shown): inhibition “no inhibition” (SLC1A4 (Homo sapiens, UniProt P43007); L-alanine uptake; Xenopus oocytes; 1 and 10 µM, 30 min, with: L-[14C]alanine 50 µM).
The inhibition of `Cc1c2c(cc3oc(=O)cc(-c4ccc(Cl)cc4)c13)C(=O)c1cccc(O)c1C2=O` is reported as 67.47 ± 0.14% (mushroom tyrosinase; enzyme activity; 100 µg/mL, with: L-DOPA).
`CNc1cncc(-c2ccc(OC)c(OC)c2)n1` gave an inhibition of 41.8% (MAPK14; primary fragment screen; 0.25 mM, with: ATP 10 µM).
For `O=C(O)c1ccc(Nc2c(-c3ccc(CON=Cc4ccc(N5CCCC5=O)cc4)cc3)nc3cc(-c4ccccc4)ccn23)cc1`, the inhibition was > 90% (TDP1; enzyme activity; 100 µM, primary screen).
The inhibition of `Nc1nc(Nc2ccccc2)nc2ccccc12` is reported as 81.3% (MAPK14; primary fragment screen; 0.25 mM, with: ATP 10 µM).
With `COc1cc(Oc2c(OC)cc(C)c(Br)c2O)c(C(=O)O)c(C)c1O` the inhibition was 13.4 ± 0.8% (gag-pol reverse transcriptase; enzyme activity, inhibitor, PicoGreen fluorescence; 10 µM).
With `CCn1c(SC(C)C(=O)Nc2ccccc2)nnc1C1CCN(C(=O)Nc2ccccc2)CC1` (stereo not shown) the inhibition was 84.7% (Seed linoleate 13S-lipoxygenase-1; enzyme activity, inhibitor; 250 µM).
`CC(C)c1csc2nc[nH]c(=O)c12` has an inhibition of 58.9% (MAPK14; primary fragment screen; 1 mM, with: ATP 10 µM).
The inhibition of `CC[C@H](C)[C@H](NC(=O)[C@H](CCCNC(=N)N)NC(=O)[C@H](CCCCN)NC(=O)[C@@H]1CCCN1C(=O)[C@@H]1CCCN1CCCN(CC[C@H](N)C(=O)O)C[C@H]1O[C@@H](n2cnc3c(N)ncnc32)[C@H](O)[C@@H]1O)C(=O)N[C@@H](C)C(N)=O` is reported as < 40% (AHCY (Homo sapiens, UniProt P23526); enzyme activity, inhibitor; 10 µM).

Some of these lines once more:
`NCC(=O)NCC(=O)NCC(=O)NCC(=O)NCC(=O)NCC(=O)NCCCC[C@H](NC(=O)[C@@H]1CCCN1C(=O)[C@@H]1CSSCCC(=O)N[C@@H](Cc2ccc(O)cc2)C(=O)N[C@@H](Cc2ccccc2)C(=O)N[C@@H](CCCC(N)=O)C(=O)N[C@@H](CC(N)=O)C(=O)N1)C(=O)NCC(N)=O` has an inhibition of > 50% (AVPR1A (Homo sapiens, UniProt P37288); ligand displacement, radioligand; 10 µM).
For `Cc1c2c(cc3oc(=O)cc(-c4ccc(O)cc4)c13)C(=O)c1cccc(O)c1C2=O`, the inhibition was 9.64 ± 0.64% (mushroom tyrosinase; enzyme activity; 25 µg/mL, with: L-DOPA).
For `CCn1c(C)c(C(=O)c2ccccc2)c(=O)n1-c1cccc(S(N)(=O)=O)c1`, the inhibition was 79.3% (JAK2; enzyme activity, inhibitor, ADP detection; 1 µM).
The inhibition of `O=C1C[C@H](c2ccc(O)c(O)c2)c2c(cc(O)c3c2O[C@H](c2ccc(O)c(O)c2)[C@H](O)C3)O1` is reported as 41.3% (DPP4; enzyme activity, inhibitor, absorbance; 50 µg/mL).
For `COc1cc(Oc2c(O)c(Cl)c(C)c(Cl)c2OC)c(C(=O)O)c(C)c1O`, the inhibition was 9.7 ± 0.8% (gag-pol reverse transcriptase; enzyme activity, inhibitor, PicoGreen fluorescence; 10 µM).
With `CC[C@H](C)[C@H](NC(=O)[C@@H]1CSSC[C@H](NC(=O)[C@H](Cc2ccc(O)cc2)NC(=O)CN)C(=O)N[C@@H](CO)C(=O)N[C@@H](CCCNC(=N)N)C(=O)N[C@@H](CO)C(=O)N[C@@H](Cc2ccc(O)cc2)C(=O)N2CCC[C@H]2C(=O)N2CCC[C@H]2C(=O)N[C@@H](C(C)C)C(=O)N1)C(=O)N1CCC[C@H]1C(=O)N[C@@H](CC(=O)O)C(=O)O` the inhibition was 31% (Mannan-binding lectin serine protease 1 (Homo sapiens, UniProt P48740); enzyme activity, inhibitor; 15 µM, with: 10 nM MASP-1).
`Cc1cc(O)cc2c1C(=O)c1c(cc3oc(=O)cc(-c4ccc(Cl)cc4)c3c1O)C2=O` gave an inhibition of 47.56 ± 0.22% (mushroom tyrosinase; enzyme activity; 50 µg/mL, with: L-DOPA).
With `Cc1ccc2c(c1)C(O)(CC(=O)c1ccc3c(c1)OCO3)C(=O)N2` (stereo not shown) the inhibition was 27% (Uncharacterized protein (Trypanosoma brucei brucei, UniProt Q386Q8); enzyme activity, inhibitor, coupled colorimetric; Trypanosoma brucei; 100 µM).
